Experimental data collected from several papers.
Numbered parts are unrelated; each lists some results of a single study.
Sequence of UniProt Q9UBF8 (whole entry, looked up): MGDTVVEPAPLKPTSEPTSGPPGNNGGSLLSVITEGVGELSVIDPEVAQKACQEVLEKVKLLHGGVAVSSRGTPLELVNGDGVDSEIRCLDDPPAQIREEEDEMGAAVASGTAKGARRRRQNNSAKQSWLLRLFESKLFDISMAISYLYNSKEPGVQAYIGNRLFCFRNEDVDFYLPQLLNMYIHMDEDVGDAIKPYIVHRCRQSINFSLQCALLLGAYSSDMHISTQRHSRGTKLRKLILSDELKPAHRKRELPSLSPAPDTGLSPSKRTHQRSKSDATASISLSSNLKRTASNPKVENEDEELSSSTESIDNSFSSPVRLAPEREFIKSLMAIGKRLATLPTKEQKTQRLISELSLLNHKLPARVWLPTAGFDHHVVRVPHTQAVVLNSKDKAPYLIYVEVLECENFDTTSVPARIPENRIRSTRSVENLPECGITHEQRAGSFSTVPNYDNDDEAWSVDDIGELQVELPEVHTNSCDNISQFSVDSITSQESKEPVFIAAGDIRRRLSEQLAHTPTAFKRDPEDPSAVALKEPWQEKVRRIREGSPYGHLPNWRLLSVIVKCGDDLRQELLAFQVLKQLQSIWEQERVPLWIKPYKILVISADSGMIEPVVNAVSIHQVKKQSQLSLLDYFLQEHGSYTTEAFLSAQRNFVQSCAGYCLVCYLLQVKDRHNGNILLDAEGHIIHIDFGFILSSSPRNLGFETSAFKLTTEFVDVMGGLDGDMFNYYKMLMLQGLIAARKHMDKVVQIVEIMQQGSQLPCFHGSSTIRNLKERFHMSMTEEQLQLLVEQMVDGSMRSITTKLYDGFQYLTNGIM
Sequence of UniProt P78368 (whole entry, looked up): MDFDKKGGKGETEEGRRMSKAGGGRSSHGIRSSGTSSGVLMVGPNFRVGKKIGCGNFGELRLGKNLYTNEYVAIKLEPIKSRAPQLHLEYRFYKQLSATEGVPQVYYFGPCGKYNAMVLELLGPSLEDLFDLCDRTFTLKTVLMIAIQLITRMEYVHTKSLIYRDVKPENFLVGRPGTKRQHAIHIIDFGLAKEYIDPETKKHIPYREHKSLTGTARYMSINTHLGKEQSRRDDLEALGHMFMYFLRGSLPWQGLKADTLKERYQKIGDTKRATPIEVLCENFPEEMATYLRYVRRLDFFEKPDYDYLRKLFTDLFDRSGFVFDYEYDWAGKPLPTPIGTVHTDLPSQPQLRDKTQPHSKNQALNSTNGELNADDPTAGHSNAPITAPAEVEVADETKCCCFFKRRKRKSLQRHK
Sequence of UniProt Q06418 (whole entry, looked up): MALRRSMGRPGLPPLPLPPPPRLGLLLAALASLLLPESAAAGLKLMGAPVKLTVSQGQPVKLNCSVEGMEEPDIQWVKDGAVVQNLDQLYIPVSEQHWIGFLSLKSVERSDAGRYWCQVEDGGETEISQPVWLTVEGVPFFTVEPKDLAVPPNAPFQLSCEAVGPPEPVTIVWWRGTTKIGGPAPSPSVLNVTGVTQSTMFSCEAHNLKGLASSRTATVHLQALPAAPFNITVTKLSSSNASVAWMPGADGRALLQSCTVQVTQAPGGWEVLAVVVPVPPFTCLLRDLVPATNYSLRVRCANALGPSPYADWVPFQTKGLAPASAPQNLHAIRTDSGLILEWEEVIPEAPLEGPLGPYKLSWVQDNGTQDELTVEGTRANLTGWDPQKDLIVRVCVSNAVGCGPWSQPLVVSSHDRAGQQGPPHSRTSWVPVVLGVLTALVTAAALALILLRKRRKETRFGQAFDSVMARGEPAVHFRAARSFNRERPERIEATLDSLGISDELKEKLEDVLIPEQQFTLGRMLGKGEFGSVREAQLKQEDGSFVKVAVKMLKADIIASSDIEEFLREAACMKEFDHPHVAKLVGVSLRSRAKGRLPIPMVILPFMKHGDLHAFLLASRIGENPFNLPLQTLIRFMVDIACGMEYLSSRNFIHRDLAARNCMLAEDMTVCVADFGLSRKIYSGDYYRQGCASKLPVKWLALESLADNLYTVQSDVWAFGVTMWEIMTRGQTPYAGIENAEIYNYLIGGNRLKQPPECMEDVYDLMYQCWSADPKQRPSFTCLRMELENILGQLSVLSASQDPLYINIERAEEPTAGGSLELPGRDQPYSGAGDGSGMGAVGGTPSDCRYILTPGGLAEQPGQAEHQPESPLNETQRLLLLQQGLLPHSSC
Sequence of UniProt Q9H4B4 (whole entry, looked up): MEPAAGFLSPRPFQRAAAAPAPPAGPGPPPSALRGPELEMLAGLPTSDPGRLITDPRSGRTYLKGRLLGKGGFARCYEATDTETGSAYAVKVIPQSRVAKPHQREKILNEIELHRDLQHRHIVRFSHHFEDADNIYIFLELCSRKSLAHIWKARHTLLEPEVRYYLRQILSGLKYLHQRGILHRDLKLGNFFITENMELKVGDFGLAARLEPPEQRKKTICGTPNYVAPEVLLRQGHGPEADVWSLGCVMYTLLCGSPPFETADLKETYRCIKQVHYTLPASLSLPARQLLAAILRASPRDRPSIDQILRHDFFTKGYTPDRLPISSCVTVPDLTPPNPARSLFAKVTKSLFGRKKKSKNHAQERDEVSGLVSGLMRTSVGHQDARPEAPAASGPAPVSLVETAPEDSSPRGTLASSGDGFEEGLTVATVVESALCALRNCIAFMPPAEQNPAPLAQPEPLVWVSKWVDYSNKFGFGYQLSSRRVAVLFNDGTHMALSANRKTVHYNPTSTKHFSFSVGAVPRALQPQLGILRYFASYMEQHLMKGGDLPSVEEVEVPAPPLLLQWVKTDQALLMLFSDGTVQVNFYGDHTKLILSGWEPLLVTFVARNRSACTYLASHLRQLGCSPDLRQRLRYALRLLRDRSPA
Sequence of UniProt P54753 (whole entry, looked up): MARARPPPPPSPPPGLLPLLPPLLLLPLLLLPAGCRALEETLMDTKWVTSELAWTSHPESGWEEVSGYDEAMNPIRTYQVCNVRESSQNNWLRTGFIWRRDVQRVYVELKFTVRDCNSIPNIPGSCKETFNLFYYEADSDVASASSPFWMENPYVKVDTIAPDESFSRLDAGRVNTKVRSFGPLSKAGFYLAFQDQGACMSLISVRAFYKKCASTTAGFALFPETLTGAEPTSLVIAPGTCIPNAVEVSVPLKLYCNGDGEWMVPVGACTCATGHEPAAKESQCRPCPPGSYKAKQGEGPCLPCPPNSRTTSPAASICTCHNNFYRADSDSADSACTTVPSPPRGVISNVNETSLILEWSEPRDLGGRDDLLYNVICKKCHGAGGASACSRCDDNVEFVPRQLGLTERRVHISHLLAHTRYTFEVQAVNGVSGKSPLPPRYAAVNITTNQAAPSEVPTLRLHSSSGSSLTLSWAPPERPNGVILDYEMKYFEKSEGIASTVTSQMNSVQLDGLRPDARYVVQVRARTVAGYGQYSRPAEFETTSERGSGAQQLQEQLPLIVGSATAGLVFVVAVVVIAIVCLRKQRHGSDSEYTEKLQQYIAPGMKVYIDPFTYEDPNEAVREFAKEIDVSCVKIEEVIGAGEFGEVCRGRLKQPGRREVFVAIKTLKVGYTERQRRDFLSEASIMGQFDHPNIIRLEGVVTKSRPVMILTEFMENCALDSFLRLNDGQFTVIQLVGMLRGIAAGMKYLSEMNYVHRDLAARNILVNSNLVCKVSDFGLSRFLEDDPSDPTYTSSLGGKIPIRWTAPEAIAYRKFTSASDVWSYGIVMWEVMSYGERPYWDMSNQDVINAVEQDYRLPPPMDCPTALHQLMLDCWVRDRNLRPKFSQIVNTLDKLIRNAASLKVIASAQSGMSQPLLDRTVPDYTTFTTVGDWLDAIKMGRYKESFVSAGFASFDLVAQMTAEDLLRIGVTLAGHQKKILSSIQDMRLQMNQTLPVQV
Sequence of UniProt P27361 (whole entry, looked up): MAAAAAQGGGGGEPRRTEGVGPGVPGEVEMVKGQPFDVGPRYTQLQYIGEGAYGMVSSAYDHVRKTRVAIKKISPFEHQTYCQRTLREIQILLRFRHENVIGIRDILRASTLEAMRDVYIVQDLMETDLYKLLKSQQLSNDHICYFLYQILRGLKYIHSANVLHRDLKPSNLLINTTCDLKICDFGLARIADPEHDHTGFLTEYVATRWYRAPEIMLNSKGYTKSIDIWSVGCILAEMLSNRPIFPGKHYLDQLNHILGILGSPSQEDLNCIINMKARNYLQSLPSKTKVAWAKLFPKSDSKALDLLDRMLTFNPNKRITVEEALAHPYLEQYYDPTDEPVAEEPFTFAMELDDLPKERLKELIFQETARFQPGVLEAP

Block 1
Target: Cyclin-dependent kinase 6, with cyclin D1 (CDK6, Homo sapiens, UniProt Q00534)
Sequence of UniProt Q00534 (whole entry, looked up): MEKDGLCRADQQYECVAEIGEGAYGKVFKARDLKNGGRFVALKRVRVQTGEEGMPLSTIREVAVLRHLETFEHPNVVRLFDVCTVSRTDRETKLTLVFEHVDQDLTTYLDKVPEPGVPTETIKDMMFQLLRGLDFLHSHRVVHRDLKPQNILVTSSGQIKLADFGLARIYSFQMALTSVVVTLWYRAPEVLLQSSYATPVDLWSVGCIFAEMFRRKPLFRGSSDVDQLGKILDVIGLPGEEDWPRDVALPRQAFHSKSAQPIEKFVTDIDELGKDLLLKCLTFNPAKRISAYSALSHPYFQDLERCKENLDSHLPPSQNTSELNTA
Read-out: enzyme activity
Mode: inhibitor
Tested at: 0.5 µM
Relative to: control
Compound	remaining activity
c1ccc(-c2n[nH]c3c2oc2ccccc23)cc1	90.4%
CN1CCN(c2ccc3nc(-c4c(N)c5c(F)cccc5[nH]c4=O)[nH]c3c2)CC1	74.6%
O=C1NC(=O)c2c1c1c3ccccc3[nH]c1c1[nH]c3cc(Br)ccc3c21	12.2%
O=C(c1cc2cc(O)ccc2[nH]1)c1cc2cc(O)ccc2[nH]1	81.2%
Cc1cc(Nc2cc(N3CCN(C)CC3)nc(Sc3ccc(NC(=O)C4CC4)cc3)n2)[nH]n1	95.2%
O=C1Cc2c([nH]c3ccc(Br)cc23)-c2ccccc2N1	83.4%
CN(C)S(=O)(=O)c1ccc2c(c1)/C(=C/c1cc3c([nH]1)CCCC3)C(=O)N2	92.5%
O=Nc1c(-c2c(O)[nH]c3cc(Br)ccc23)[nH]c2ccccc12	35.9%
COc1ccc(COc2ccc(Cc3cnc(N)nc3N)cc2OC)cc1	101%

Block 2
Target: Ras GTPase-activating protein-binding protein 1, full length (G3BP1, Homo sapiens, UniProt Q13283)
Sequence of UniProt Q13283 (whole entry, looked up): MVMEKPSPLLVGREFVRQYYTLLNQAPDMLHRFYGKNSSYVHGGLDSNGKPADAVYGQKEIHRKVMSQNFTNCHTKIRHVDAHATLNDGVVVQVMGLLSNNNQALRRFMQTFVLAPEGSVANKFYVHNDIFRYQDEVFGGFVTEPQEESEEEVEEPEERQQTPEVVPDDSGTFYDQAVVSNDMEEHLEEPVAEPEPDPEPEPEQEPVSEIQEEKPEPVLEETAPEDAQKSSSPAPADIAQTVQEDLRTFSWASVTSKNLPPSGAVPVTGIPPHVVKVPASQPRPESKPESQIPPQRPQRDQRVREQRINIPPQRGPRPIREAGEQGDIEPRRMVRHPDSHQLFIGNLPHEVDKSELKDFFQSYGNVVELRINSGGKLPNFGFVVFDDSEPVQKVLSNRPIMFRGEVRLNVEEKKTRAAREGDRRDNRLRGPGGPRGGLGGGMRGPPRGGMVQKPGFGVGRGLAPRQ
Method: RNA Bind-n-Seq
Form: RNA
Sample: in vitro
Tested at: 200 nM
Setting: whole 134-nt RNA, ends assumed
Added: 150 mM LiCl
Relative to: input library
Reading: higher = stronger binding
Each molecule: 7-deaza-guanosine replaces G
Shared flanks, not repeated: GGGAGUUCUACAGUCCGACGAUC … UGGAAUUCUCGGGUGUCAAGG
Oligonucleotide	log2 enrichment
CCUGUGCUACACAUCGUAUGUACCGAAUCGGUUUUUUUGGGUUUUUUUGGGGUUUUUUUGGAAAGUAUUAUGUUACGCCGUUCGGAUCUG	0.824
UCAAGUCCUGUGCUACACAUCGUAUGUACCGAAUCGGGCCCGGGCCCGGCCCGGAAAGUAUUAUGUUACGCCGUUCGGAUCUGCACUUCC	-0.834
AAGUCCUGUGCUACACAUCGUAUGUACCGAAUCGGGGUGGGGUUUUUGGGGAGGGGAAAGUAUUAUGUUACGCCGUUCGGAUCUGCACUU	0.448
AAGUCCUGUGCUACACAUCGUAUGUACCGAAUCGGAAAAAGGUUUUUUUGGAAAGGAAAGUAUUAUGUUACGCCGUUCGGAUCUGCACUU	-2.6
UUCCAGGCUCAAGCACGGACAUCAGUGAGGACUGGGAGAAAGACUUUGACUUGGACAUGACUGAAGAGGAGGUGCAGAUGGCACUUUCCA	-2.47
CACAGACAACACGCACCCACACAGACACAGAGGGAAGCGGUUGGGAUGGGGACAGGGUGCACAGCAGGGCGGGGUAGGACCCCAGCCCCU	-1.52
UGGGAGGUGGAUUUUGUUUAUUUUUUUAGCUCAUUUCCAGGGGUGGGAAUUUUUUUUUAAUAUGUGUCAUGAAUAAAGUUGUUUAUGAAA	-0.456
ACCAUGCAGGUGGGCAUCUUUGGGAAGUGGGGCAAGGGGGGGAUAGGGAGGGGGGUAAAAAUUUGGGAACAGGUGGUCCCAGGUCGUUUC	0.115

Block 3
Molecule: SNFFDVIKQLFSDEKN
Form: peptide
Reading: direction not given
target or system	test	system	setting	enrichment score
Saccharomyces cerevisiae	binding, competitive growth deep sequencing	cyclin E1-Cln2 fusion strain	peptide tiling library	0.94
Saccharomyces cerevisiae	binding, yeast competitive growth sequencing	cyclin D1-Cln2 strain, peptide tiling library	pooled screen	-2.91
Saccharomyces cerevisiae	cell growth, competitive growth deep sequencing		peptide tiling library, added: cyclin F-Cln2 fusion	0.651
Saccharomyces cerevisiae	pheromone growth arrest, yeast competitive growth sequencing	no Cln2 overexpression	peptide tiling library	-0.175
	peptide binding	yeast competitive growth	added: B1-Cln2 chimera	0.561

Block 4
SMILES: O=C(NS(=O)(=O)c1ccc(NCC2CCOCC2)c([N+](=O)[O-])c1)c1ccc(N2CCN(Cc3ccc(C(F)(F)F)cc3-c3ccc(Cl)cc3)CC2)cc1Oc1cnc2[nH]ccc2c1
Read-out: cell-free assay
Method: competition with immobilised ligand
Tested at: 1 µM
target	remaining binding [%]
CSNK1G2 (Homo sapiens, UniProt P78368)	100
PI4KB (Homo sapiens, UniProt Q9UBF8)	79
CSF1R (Homo sapiens, UniProt P07333)	100
MAPK3 (Homo sapiens, UniProt P27361)	98
PLK3 (Homo sapiens, UniProt Q9H4B4)	100
TYRO3 (Homo sapiens, UniProt Q06418)	92
EPHB3 (Homo sapiens, UniProt P54753)	100

For quick reference, copied from above (block 2):
Oligonucleotide	log2 enrichment
CCUGUGCUACACAUCGUAUGUACCGAAUCGGUUUUUUUGGGUUUUUUUGGGGUUUUUUUGGAAAGUAUUAUGUUACGCCGUUCGGAUCUG	0.824
CACAGACAACACGCACCCACACAGACACAGAGGGAAGCGGUUGGGAUGGGGACAGGGUGCACAGCAGGGCGGGGUAGGACCCCAGCCCCU	-1.52
UCAAGUCCUGUGCUACACAUCGUAUGUACCGAAUCGGGCCCGGGCCCGGCCCGGAAAGUAUUAUGUUACGCCGUUCGGAUCUGCACUUCC	-0.834
AAGUCCUGUGCUACACAUCGUAUGUACCGAAUCGGAAAAAGGUUUUUUUGGAAAGGAAAGUAUUAUGUUACGCCGUUCGGAUCUGCACUU	-2.6
